Assay results from different studies.
Protocols differ between the studies behind these lines. “And” joins repeats or separate records; there may be more than shown.
DRD3: D(3) dopamine receptor (DRD3, Homo sapiens, UniProt P35462)
Chain of UniProt P35462 (whole entry, looked up): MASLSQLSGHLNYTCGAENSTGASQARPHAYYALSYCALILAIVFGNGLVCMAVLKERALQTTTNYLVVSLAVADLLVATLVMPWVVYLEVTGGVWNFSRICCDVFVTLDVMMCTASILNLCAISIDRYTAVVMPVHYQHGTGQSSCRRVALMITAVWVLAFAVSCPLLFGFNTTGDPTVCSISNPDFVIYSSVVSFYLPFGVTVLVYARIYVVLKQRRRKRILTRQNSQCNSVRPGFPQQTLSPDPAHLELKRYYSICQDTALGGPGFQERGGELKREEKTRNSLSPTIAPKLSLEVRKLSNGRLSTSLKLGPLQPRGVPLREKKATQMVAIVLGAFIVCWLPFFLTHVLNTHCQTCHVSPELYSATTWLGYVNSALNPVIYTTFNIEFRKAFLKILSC
HDAC6: Protein deacetylase HDAC6 (HDAC6, Homo sapiens, UniProt Q9UBN7)
Chain of UniProt Q9UBN7 (whole entry, looked up): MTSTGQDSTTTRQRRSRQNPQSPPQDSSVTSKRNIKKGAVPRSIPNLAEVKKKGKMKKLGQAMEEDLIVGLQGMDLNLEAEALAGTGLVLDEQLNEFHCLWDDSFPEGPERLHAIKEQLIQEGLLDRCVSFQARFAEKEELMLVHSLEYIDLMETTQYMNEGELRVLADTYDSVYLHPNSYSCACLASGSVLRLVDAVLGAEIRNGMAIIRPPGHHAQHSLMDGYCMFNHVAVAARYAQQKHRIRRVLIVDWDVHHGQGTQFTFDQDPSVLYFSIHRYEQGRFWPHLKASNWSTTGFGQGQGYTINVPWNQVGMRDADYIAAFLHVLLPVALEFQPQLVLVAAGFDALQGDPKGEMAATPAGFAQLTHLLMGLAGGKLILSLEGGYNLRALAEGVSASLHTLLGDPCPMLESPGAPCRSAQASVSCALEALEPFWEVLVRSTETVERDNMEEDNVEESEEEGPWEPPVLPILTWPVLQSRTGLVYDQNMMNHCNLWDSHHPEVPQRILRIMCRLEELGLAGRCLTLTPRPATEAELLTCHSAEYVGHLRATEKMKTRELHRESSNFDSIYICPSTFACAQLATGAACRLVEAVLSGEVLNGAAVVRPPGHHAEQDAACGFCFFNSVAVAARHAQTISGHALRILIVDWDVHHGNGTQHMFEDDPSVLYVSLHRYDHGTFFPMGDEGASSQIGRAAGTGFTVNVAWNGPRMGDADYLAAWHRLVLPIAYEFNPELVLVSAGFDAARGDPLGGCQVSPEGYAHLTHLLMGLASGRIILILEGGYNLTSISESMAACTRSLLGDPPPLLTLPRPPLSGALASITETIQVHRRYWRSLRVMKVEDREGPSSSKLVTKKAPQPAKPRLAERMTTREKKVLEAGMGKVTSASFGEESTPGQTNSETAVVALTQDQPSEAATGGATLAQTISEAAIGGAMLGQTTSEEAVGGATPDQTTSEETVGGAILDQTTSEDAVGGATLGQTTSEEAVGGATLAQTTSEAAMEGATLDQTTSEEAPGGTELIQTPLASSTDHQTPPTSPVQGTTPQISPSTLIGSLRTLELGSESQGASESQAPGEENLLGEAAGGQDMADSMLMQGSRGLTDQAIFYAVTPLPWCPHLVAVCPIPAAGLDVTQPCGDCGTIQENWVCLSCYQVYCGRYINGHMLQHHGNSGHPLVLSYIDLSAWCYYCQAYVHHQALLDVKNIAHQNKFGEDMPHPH
CES2: Cocaine esterase (CES2, Homo sapiens, UniProt O00748)
Chain of UniProt O00748 (whole entry, looked up): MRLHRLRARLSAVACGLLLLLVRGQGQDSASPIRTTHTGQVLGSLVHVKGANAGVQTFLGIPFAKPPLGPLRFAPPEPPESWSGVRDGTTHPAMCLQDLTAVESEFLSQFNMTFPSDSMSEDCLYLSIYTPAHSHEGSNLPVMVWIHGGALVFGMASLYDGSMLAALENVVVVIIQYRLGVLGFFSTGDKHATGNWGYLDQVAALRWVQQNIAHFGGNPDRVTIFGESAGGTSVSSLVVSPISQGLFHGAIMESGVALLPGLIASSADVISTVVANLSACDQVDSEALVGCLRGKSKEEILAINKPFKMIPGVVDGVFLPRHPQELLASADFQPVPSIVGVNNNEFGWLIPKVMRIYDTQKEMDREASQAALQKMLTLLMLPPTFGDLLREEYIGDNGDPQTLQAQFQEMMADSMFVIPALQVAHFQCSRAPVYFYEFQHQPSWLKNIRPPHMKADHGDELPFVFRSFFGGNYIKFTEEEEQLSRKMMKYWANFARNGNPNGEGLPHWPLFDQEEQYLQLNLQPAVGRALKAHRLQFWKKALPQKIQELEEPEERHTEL
PIK3CB: Phosphatidylinositol 4,5-bisphosphate 3-kinase catalytic subunit beta isoform (PIK3CB, Homo sapiens, UniProt P42338)
Chain of UniProt P42338 (whole entry, looked up): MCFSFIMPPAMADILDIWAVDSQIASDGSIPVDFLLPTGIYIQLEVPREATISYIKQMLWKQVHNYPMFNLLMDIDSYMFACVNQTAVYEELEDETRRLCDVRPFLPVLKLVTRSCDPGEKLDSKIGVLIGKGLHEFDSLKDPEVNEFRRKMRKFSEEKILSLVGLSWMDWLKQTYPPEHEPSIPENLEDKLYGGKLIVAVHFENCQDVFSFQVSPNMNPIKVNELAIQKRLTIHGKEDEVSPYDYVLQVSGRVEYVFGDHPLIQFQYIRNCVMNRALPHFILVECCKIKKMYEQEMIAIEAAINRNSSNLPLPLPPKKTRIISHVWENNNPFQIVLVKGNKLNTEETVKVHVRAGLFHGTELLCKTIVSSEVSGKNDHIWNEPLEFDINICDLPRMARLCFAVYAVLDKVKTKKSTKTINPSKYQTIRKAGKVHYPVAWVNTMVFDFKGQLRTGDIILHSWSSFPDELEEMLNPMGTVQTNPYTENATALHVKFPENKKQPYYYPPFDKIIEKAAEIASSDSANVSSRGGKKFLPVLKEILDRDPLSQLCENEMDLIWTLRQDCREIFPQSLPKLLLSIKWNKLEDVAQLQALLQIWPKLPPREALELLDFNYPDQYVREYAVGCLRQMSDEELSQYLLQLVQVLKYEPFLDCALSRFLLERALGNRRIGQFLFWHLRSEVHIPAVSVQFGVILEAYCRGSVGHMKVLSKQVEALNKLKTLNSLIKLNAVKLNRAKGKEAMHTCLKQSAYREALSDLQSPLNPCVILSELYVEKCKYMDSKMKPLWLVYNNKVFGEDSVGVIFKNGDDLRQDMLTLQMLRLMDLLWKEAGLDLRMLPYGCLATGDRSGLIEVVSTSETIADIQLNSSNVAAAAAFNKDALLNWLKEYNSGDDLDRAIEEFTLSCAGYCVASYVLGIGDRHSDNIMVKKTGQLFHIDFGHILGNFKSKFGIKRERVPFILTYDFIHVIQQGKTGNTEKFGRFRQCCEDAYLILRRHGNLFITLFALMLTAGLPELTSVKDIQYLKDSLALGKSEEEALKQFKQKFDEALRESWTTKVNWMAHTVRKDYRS
HDAC8: Histone deacetylase 8 (HDAC8, Homo sapiens, UniProt Q9BY41)
Chain of UniProt Q9BY41 (whole entry, looked up): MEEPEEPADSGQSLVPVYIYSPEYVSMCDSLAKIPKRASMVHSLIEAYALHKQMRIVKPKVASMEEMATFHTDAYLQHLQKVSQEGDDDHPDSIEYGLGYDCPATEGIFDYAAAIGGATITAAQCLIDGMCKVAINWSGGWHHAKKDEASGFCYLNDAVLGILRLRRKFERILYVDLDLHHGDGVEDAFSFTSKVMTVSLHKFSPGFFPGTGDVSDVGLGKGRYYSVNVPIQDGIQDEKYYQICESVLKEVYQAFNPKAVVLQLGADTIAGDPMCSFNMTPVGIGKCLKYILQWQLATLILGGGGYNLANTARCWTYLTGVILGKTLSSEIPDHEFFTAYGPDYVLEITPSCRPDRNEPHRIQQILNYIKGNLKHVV
PARP10: Protein mono-ADP-ribosyltransferase PARP10 (PARP10, Homo sapiens, UniProt Q53GL7)
PARP2: Poly [ADP-ribose] polymerase 2 (PARP2, Homo sapiens, UniProt Q9UGN5)
Chain of UniProt Q9UM07 (whole entry, looked up): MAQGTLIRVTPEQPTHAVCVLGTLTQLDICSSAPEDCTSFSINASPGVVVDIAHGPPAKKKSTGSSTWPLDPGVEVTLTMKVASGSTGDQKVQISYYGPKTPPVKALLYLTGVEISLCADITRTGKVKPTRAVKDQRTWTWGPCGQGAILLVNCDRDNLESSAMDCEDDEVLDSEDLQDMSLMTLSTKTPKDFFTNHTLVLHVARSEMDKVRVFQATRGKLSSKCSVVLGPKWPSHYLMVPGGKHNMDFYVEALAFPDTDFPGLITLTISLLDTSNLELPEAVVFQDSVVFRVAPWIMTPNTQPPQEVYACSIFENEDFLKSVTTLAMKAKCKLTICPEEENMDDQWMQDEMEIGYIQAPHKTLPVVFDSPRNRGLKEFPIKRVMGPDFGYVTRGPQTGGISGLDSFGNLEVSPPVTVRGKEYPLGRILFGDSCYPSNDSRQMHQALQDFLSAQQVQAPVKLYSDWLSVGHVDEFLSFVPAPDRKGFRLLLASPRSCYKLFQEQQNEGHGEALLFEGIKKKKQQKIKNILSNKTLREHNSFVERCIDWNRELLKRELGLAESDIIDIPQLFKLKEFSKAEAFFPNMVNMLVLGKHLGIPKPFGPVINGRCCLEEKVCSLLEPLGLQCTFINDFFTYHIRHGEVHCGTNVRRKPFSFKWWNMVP
Chain of UniProt Q9UGN5 (whole entry, looked up): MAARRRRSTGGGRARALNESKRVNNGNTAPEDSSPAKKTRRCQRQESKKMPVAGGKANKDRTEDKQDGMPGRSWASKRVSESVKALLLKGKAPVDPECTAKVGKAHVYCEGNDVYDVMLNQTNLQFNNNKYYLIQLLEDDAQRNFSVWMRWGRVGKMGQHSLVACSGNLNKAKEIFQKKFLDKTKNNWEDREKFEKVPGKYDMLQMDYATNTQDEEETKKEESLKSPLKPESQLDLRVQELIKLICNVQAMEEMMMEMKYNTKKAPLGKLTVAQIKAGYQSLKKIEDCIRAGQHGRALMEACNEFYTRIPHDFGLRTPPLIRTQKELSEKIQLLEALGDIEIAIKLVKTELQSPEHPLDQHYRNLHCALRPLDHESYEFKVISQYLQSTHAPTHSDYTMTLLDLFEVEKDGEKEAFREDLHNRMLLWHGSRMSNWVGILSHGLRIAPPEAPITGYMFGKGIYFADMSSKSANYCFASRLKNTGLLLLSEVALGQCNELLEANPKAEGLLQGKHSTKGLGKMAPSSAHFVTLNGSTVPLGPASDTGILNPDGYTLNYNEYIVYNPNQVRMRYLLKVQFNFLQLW

Cc1[nH]c(C)c(S(=O)(=O)Nc2ccc(C(=O)C(F)(F)F)c(Cl)c2)c1C(=O)N1CCC(F)(F)C1 — IC50 (DRD3; β-arrestin recruitment, antagonist): 11.5 µM
COc1ccc(OS(=O)(=O)Oc2cccc(C(=O)NO)c2)cc1OC — IC50 (HDAC6; enzyme activity, inhibitor, fluorescence): 0.063 µM
COc1cc2c(cc1OC)C(=O)/C(=C/c1ccccc1N1CCOCC1)C2 — IC50 (CES2; enzyme activity, inhibitor, fluorescence; with preincubation): 0.85 µM
COC[C@H](NC(=O)[C@H](CC(C)C)NC(=O)[C@H](Cc1ccccc1)N=[N+]=[N-])C(=O)N[C@H](/C=C/S(C)(=O)=O)Cc1ccc(CN)cc1 — IC50 (PSMB8 (Homo sapiens, UniProt P28062); enzyme activity, inhibitor; lysate): 5.22 µM
COc1cc2c(cc1OC)C(=O)/C(=C/c1ccco1)C2 — IC50 (CES2; enzyme activity, inhibitor, fluorescence; with preincubation): 3.23 µM
CNC(=O)c1cc2c(Oc3ccc(NC(=O)C4(C(=O)Nc5ccc(F)cc5)CC4)cc3)ccnc2cc1OC — IC50 (MET (Homo sapiens, UniProt P08581, D1228N); enzyme activity, inhibitor, radiometric): 0.013 µM
Cc1nc(Nc2ccc3c(c2)/C(=C/c2ccccc2)C(=O)N3Cc2ccccc2)c2ccccc2n1 — IC50 (PIK3CB; enzyme activity, inhibitor, ADP detection): > 1 µM
Cc1cc(OS(=O)(=O)Oc2ccc(-n3ccnc3)cc2)cc(C(=O)NO)c1 — IC50 (HDAC8; enzyme activity, inhibitor, fluorescence): 2.05 µM
COc1cc2c(cc1OC)C(=O)/C(=C/c1ccccc1[N+](=O)[O-])C2 — IC50 (CES2; enzyme activity, inhibitor, fluorescence; with preincubation): 0.88 µM
Cc1[nH]c(C)c(S(=O)(=O)Nc2ccc(C(F)(F)F)c(Cl)c2)c1C(=O)NCC(F)F — IC50 (DRD3; G protein activation, antagonist, BRET): 7.2 µM
Cc1ccc(CN2C(=O)C(=Nc3c(C(C)C)cccc3C(C)C)c3ccccc32)cc1 — IC50 (PIK3CB; enzyme activity, inhibitor, ADP detection): 0.145 µM
CCCCCCC#Cc1cncc(-c2nnc(SCc3cc([N+](=O)[O-])cc([N+](=O)[O-])c3)n2CCCN)c1 — IC50 (mraY (Staphylococcus aureus, UniProt Q2FZ93); enzyme activity, inhibitor): 25 µM
CC(=O)Nc1ccc(Nc2nc(-c3sc(N)nc3C)cs2)cc1 — IC50 (Protein-lysine 6-oxidase (Homo sapiens, UniProt P28300); enzyme activity, inhibitor, fluorescence; with preincubation): 0.28 µM
CCCCCn1nnc2c3ccc(F)cc3c(=O)[nH]c21 — IC50 (PARP10; enzyme activity, inhibitor): 0.224 µM
CCOC(=O)c1ccccc1-c1c2ccc(=O)cc-2oc2cc(OCCOCCn3nnnc3C(NCc3ccc(Cl)cc3Cl)C3CC3)ccc12 (stereo not drawn) — IC50 (ALOX15 (Homo sapiens, UniProt P16050); enzyme activity, inhibitor, absorbance): > 100 µM
CN(C)C/C=C/C(=O)Nc1cc2c(Nc3ccc(F)c(Cl)c3)ncnc2cc1O[C@H]1CCOC1 — IC50 (CES2; enzyme activity, inhibitor, fluorescence; with preincubation): > 100 µM
CC(C)N(CCC(=O)c1ccc2ccccc2c1)Cc1ccccc1 — IC50 (ALDH1A1 (Homo sapiens, UniProt P00352); enzyme activity, inhibitor, fluorescence): < 10 µM
CNC(=O)c1ccccc1Sc1ccc2c(/C=C/c3ccccn3)n[nH]c2c1 — IC50 (CES2; enzyme activity, inhibitor, fluorescence; with preincubation): 11.5 µM
Cc1ccc(-c2ccc3c(c2)C=C(C(=O)Nc2ccc(C[N+](C)(C)C4CCOCC4)cc2)CCC3)cc1 — IC50 (CCR5 (Homo sapiens, UniProt P51681); β-arrestin recruitment, antagonist): 0.00479 µM
CCCCCOc1ccc2cc(C(=O)N[C@@H](CCCNC(=N)CCl)C(=O)NCc3ccccc3)ccc2c1 — IC50 (PADI4 (Homo sapiens, UniProt Q9UM07); enzyme activity, inhibitor, fluorescence; with preincubation): ~0.9 µM and 0.902 µM
CCC(C(=O)N1C(=O)C(=Nc2ccc(Cl)cc2Br)c2ccccc21)c1ccccc1 (stereo not drawn) — IC50 (PIK3CB; enzyme activity, inhibitor, ADP detection): 0.145 µM
C=CC(=O)N1CCC(COCC(=O)N2CCN(c3nc(-c4cnc(N)nc4C(F)F)nc(N4CCOC[C@@H]4C)n3)CC2)CC1 — remaining binding (DAPK3 (Homo sapiens, UniProt O43293); binding, competition with immobilised ligand; 1 µM): 100%
c1ccc(-c2occc2-c2ccnc3ccccc23)nc1 — IC50 (YCK2 (Candida albicans, UniProt A0A1D8PKB4); enzyme activity, inhibitor, ADP detection): > 4 µM and 6.4 µM
NC(=O)N1c2ccccc2C=Cc2ccccc21 — IC50 (CES2; enzyme activity, inhibitor, fluorescence; with preincubation): > 100 µM
Cc1cc(C(C)(C)C)ccc1OS(=O)(=O)Oc1cccc(C(=O)NO)c1 — IC50 (HDAC8; enzyme activity, inhibitor, fluorescence): 2.26 µM
NC(=O)c1ccc(C(=O)NOCc2ccc(F)cc2)cc1 — IC50 (SIRT6 (Homo sapiens, UniProt Q8N6T7); enzyme activity, inhibitor, fluorescence): 8.26 µM
O=C(NO)c1cccc(OS(=O)(=O)Oc2ccc3c(c2)OCO3)c1 — IC50 (HDAC8; enzyme activity, inhibitor, fluorescence): 0.091 µM
CNc1ncc2c(/C=C/C(=O)N3CCC(OC)CC3)nn(Cc3cccc(C(F)(F)F)c3)c2n1 — remaining activity (CLK3 (Homo sapiens, UniProt P49761); enzyme activity, inhibitor, radiometric; 1 µM): 105%
Cc1[nH]c(C)c(S(=O)(=O)Nc2cc(Cl)c(Cl)c(Cl)c2)c1C(=O)N1CCC(F)(F)C1 — IC50 (DRD3; β-arrestin recruitment, antagonist): 5.8 µM
CCCCCn1nnc2c3ccccc3c(=O)[nH]c21 — IC50 (PARP2; enzyme activity, inhibitor): > 10 µM
Cc1[nH]c(C)c(S(=O)(=O)Nc2ccc(Cl)cc2C(F)(F)F)c1C(=O)N1CCC(F)(F)C1 — IC50 (DRD3; G protein activation, antagonist, BRET): 14 µM
COc1ccc(Cn2nnc3c4ccc(F)cc4c(=O)[nH]c32)cc1 — IC50 (PARP10; enzyme activity, inhibitor): > 10 µM
COc1cc(-c2cncc3c2CN(C)Cc2cc(N4CCNCC4)ccc2-3)cc(OC)c1OC — remaining activity (NTRK1 (Homo sapiens, UniProt P04629); enzyme activity, inhibitor; 1 µM): 117%
O=C(/C=C/c1cccc(OS(=O)(=O)Oc2ccccc2)c1)NO — IC50 (HDAC8; enzyme activity, inhibitor, fluorescence): 2.74 µM
Cc1[nH]c(C)c(S(=O)(=O)Nc2ccc(C(F)(F)F)c(Cl)c2)c1C(=O)N1CCC(O)C1 (stereo not drawn) — IC50 (DRD3; G protein activation, antagonist, BRET): 6.2 µM
CC(C)c1cccc(C(C)C)c1N=C1C(=O)N(Cc2ccccc2)c2ccccc21 — IC50 (PIK3CB; enzyme activity, inhibitor, ADP detection): 0.0816 µM
Cc1[nH]c(C)c(S(=O)(=O)Nc2ccc(Cl)c(C(F)(F)F)c2)c1C(=O)N1CCC(F)(F)C1 — IC50 (DRD3; β-arrestin recruitment, antagonist): 27 µM
O=c1[nH]c2c(nnn2C2CCCCC2)c2ccc(F)cc12 — IC50 (PARP2; enzyme activity, inhibitor): > 10 µM
Cc1[nH]c(C)c(S(=O)(=O)Nc2ccc(C(F)(F)F)c(Cl)c2)c1C(=O)N1CCC(=O)C1 — IC50 (DRD3; β-arrestin recruitment, antagonist): 4.3 µM
O=C(NO)c1cc(F)cc(OS(=O)(=O)Oc2ccc(Oc3ccccc3)cc2)c1 — IC50 (HDAC6; enzyme activity, inhibitor, fluorescence): 2.65 µM
Cc1[nH]c(C)c(S(=O)(=O)Nc2ccc(C(F)(F)F)c(Cl)c2)c1C(=O)N1CC[C@H](F)C1 — IC50 (DRD3; β-arrestin recruitment, antagonist): 4.6 µM
Cc1cc(OS(=O)(=O)Oc2ccc(Oc3ccccc3)cc2)cc(C(=O)NO)c1 — IC50 (HDAC8; enzyme activity, inhibitor, fluorescence): 4.71 µM

A few entries again:
Cc1[nH]c(C)c(S(=O)(=O)Nc2ccc(Cl)c(C(F)(F)F)c2)c1C(=O)N1CCC(F)(F)C1 — IC50 (DRD3; β-arrestin recruitment, antagonist): 27 µM
O=c1[nH]c2c(nnn2C2CCCCC2)c2ccc(F)cc12 — IC50 (PARP2; enzyme activity, inhibitor): > 10 µM
